Published values gathered from unrelated publications.
± gives the spread as reported.

SMILES = O=C(NC[C@H](O)CO)c1ccncc1Nc1ccc(I)cc1F; system = human patients, plasma; setting = oral, 60 mg single dose, day 1, median, added: FOLFIRI; AUC(0-t) = 1.39 µg·h/mL
SMILES = O=C(NCCN1CCCC1)c1cc(-c2ccc(CN3CCOCC3)cc2)nc2ccc(F)cc12; test = LC-MS/MS; system = human, whole blood; setting = oral, 100 mg, single dose, geometric mean; AUC(0-t) = 1.25 µg·h/mL
SMILES = CC(C)C[C@H](NC(=O)[C@H](CCc1ccccc1)NC(=O)CN1CCOCC1)C(=O)N[C@@H](Cc1ccccc1)C(=O)N[C@@H](CC(C)C)C(=O)[C@@]1(C)CO1; system = human patients, plasma; setting = intravenous infusion 10 min, 20 mg/m^2, day 1 of cycle 1, KRd regimen; AUC(0-t) = 0.326 ± 0.0735 µg·h/mL
SMILES = O=c1[nH]c(=O)c(Cc2cccc(C(F)(F)F)c2)c([C@H]2CC[C@H](c3ccccc3)CC2)[nH]1; system = human, fasted, plasma; setting = oral, 1500 mg single dose, geometric mean; AUC(0-t) = 9.42 µg·h/mL
SMILES = Cc1ccc(NC(=O)c2ccc(CN3CCN(C)CC3)cc2)cc1Nc1nccc(-c2cncc(-c3oncc3C)c2)n1; system = older healthy human adults, plasma; setting = oral, 37.5 mg single dose, fed, mean; AUC(0-t) = 30.4 µg·h/mL
SMILES = CNc1nc(Nc2ccc(-n3cnc(C)n3)c(OC)c2)nc2c1CC[C@H]2c1ccc(F)cc1; system = human; setting = oral, 100 mg once daily, day 1, multiple ascending dose; AUC(0-t) = 2.91 µg·h/mL
SMILES = CCc1cc(/C(C)=N/OCc2ccc(C3CCCCC3)c(C(F)(F)F)c2)ccc1CN1CC(C(=O)O)C1; system = healthy human, CYP2C9*1/*1, plasma; setting = oral, 4 mg single dose, geometric mean, added: fluconazole steady state; AUC(0-t) = 2.16 µg·h/mL
SMILES = Cc1ccc(C(=O)NC2CC2)cc1-n1ncc(C(=O)c2cccc(C#N)c2)c1N; system = human, plasma; setting = oral, 14 mg, geometric mean, added: azithromycin 500 mg daily for three days; AUC(0-t) = 6.06 µg·h/mL
SMILES = CC(=O)c1c(C)c2cnc(Nc3ccc(N4CCNCC4)cn3)nc2n(C2CCCC2)c1=O; system = human; setting = oral, 75 mg/m^2 single dose, day 1; AUC(0-t) = 1.87 µg·h/mL
SMILES = C=CC(=O)Nc1cc(Nc2ncc(C(=O)OC(C)C)c(-c3cn(C)c4ccccc34)n2)c(OC)cc1N(C)CCN(C)C; system = human, fasted; setting = oral, 40 mg single dose, arithmetic mean; AUC(0-t) = 0.18 µg·h/mL
SMILES = CC(C)c1nc(N(C)S(C)(=O)=O)nc(-c2ccc(F)cc2)c1/C=C/[C@@H](O)C[C@@H](O)CC(=O)O; system = humans, plasma; setting = oral, 20 mg, geometric mean, added: fenebrutinib 200 mg twice daily; AUC(0-t) = 0.226 µg·h/mL
SMILES = C[C@H]1O[C@@H](O[C@H]2[C@@H](O)C[C@H](O[C@H]3[C@@H](O)C[C@H](O[C@H]4CC[C@@]5(C)[C@H](CC[C@@H]6[C@@H]5C[C@@H](O)[C@]5(C)[C@@H](C7=CC(=O)OC7)CC[C@]65O)C4)O[C@@H]3C)O[C@@H]2C)C[C@H](O)[C@@H]1O; system = human; setting = oral, dose not given, day 19, added: isavuconazole; AUC(0-t) = 0.0401 µg·h/mL
SMILES = C=C(C)[C@@H]1CC[C@]2(NCCN3CCS(=O)(=O)CC3)CC[C@]3(C)[C@H](CC[C@@H]4[C@@]5(C)CC=C(C6=CC[C@@](CF)(C(=O)O)CC6)C(C)(C)[C@@H]5CC[C@]43C)[C@@H]12; system = healthy human volunteers; setting = oral, 200 mg, capsule, moderate-fat meal, arithmetic mean; AUC(0-t) = 35.9 µg·h/mL
SMILES = Cc1cc(C)c2c(c1)[C@@H](N(Cc1cc(C(F)(F)F)cc(C(F)(F)F)c1)c1nnn(C)n1)CCCN2C[C@H]1CC[C@H](C(=O)O)CC1; system = human, plasma; setting = oral, 100 mg once daily, steady state, geometric mean; AUC(0-t) = 4.61 µg·h/mL
SMILES = CCCCC1(CCCC)CN(c2ccccc2)c2cc(SC)c(OCC(=O)N[C@@H](C(=O)NCC(=O)O)c3ccccc3)cc2S(=O)(=O)C1; system = human, plasma; setting = oral, 2.5 mg, before breakfast; AUC(0-t) = 0.000227 µg·h/mL
SMILES = C=CC(=O)N1C[C@H](Nc2ncnc3[nH]ccc23)CC[C@@H]1C; test = adjusted geometric mean; system = human, plasma; setting = oral, 50 mg single dose, added: rifampicin 600 mg once daily for 8 days; AUC(0-t) = 0.249 µg·h/mL
SMILES = O=C(O)CC[C@H]1CC[C@@](c2cc(F)ccc2F)(S(=O)(=O)c2ccc(Cl)cc2)CC1; system = human patients, plasma; setting = oral, 1000 mg/m2/week; AUC(0-t) = 1400 to 2910 µg·h/mL
SMILES = Cc1cc(-c2nnc(N)nc2-c2ccc(F)cc2)cc(Cl)n1; system = human patients, plasma; setting = oral, 200 mg capsule, single dose, arithmetic mean; AUC(0-t) = 7.17 µg·h/mL
SMILES = CNC(=O)c1ccc(-c2cnc3ncc(Cc4ccc5ncccc5c4)n3n2)cc1F; system = healthy human subjects, plasma; setting = oral, 400 mg, adjusted geometric mean, alone; AUC(0-t) = 11.6 µg·h/mL
SMILES = COc1cccc(-c2ccc(NC(=O)C3=C(C(=O)O)CCC3)c(F)c2)c1; system = human, male, fasted, plasma; setting = oral, 40 mg, single dose, geometric mean; AUC(0-t) = 181 µg·h/mL
SMILES = CCCC[C@H](NC(C)=O)C(=O)N[C@H]1CCC(=O)NC[C@@H](C(=O)N[C@@H](Cc2c[nH]c3ccccc23)C(N)=O)NC(=O)[C@H](CCCNC(=N)N)NC(=O)[C@@H](Cc2ccccc2)NC(=O)[C@H](Cc2c[nH]cn2)NC1=O; system = healthy human, both sexes, plasma; setting = subcutaneous, 3.0 mg once daily, day 1, arithmetic mean; AUC(0-t) = 0.154 µg·h/mL
SMILES = COc1c(OCCCN2CCOCC2)ccc2c1N=C(NC(=O)c1cnc(N)nc1)N1CCN=C21; system = human cancer patients, plasma; setting = intravenous, 0.6 mg/kg weekly, cycle 1 day 1, compound alone, geometric mean; AUC(0-t) = 1.21 µg·h/mL
SMILES = Cc1nc2cccc(N)c2c(=O)n1C1CCC(=O)NC1=O (stereo not shown); system = healthy adult human, plasma; setting = oral, 3 mg, geometric mean, added: itraconazole 200 mg once daily; AUC(0-t) = 0.679 µg·h/mL
SMILES = COc1c(N2C[C@@H]3CCCN[C@@H]3C2)c(F)cc2c(=O)c(C(=O)O)cn(C3CC3)c12; system = human; setting = oral, 400 mg single dose, geometric mean; AUC(0-t) = 20.9 µg·h/mL
SMILES = Cc1c(C(=O)Nc2ccc(N3C[C@@H](C)O[C@@H](C)C3)nc2)cccc1-c1ccc(OC(F)(F)F)cc1; system = human, plasma; setting = oral, 800 mg, 168 h, single dose, geometric mean; AUC(0-t) = 9.73 µg·h/mL
SMILES = CNCc1ccc(-c2[nH]c3cc(F)cc4c3c2CCNC4=O)cc1; system = human patients, plasma; setting = oral, 80 mg once daily, day 15, 24 h, steady state, arithmetic mean; AUC(0-t) = 1.74 µg·h/mL
SMILES = CC(C)[C@H](N)C(=O)NCCCS(=O)(=O)O; system = human, both sexes, plasma; setting = oral, 172 mg capsule; AUC(0-t) = 5.89 ± 1.19 µg·h/mL
SMILES = CCOc1ccc(Cc2cc([C@]34OC[C@](CO)(O3)[C@@H](O)[C@H](O)[C@H]4O)ccc2Cl)cc1; system = human, plasma; setting = oral, 15 mg, added: sitagliptin 100 mg; AUC(0-t) = 1.45 µg·h/mL
SMILES = Cc1[nH]c(/C=C2\C(=O)Nc3ccccc32)c(C)c1CCC(=O)O; system = human patients; setting = oral, 200 mg/m^2 twice daily, after meal, dose 55; AUC(0-t) = 28.7 ± 1.6 µg·h/mL
SMILES = CC(C)NC[C@@H](C(=O)N1CCN(c2ncnc3c2[C@H](C)C[C@H]3O)CC1)c1ccc(Cl)cc1; system = human, hepatic impairment Moderate (Child-Pugh), plasma; setting = oral, 100 mg single, geometric mean; AUC(0-t) = 0.726 µg·h/mL
SMILES = CNC(=O)c1ccc(-c2cnc3ncc(Cc4ccc5ncccc5c4)n3n2)cc1F; system = human moderate hepatic impairment; setting = oral, 200 mg single dose, adjusted geometric mean; AUC(0-t) = 5.66 µg·h/mL
